Results pooled from the literature.
Lines come from different studies, so protocols differ. Values joined by “and” are separate records of one study, mostly repeats; a detail may differ.
UniProt Q91WC9, sequence (whole entry, looked up): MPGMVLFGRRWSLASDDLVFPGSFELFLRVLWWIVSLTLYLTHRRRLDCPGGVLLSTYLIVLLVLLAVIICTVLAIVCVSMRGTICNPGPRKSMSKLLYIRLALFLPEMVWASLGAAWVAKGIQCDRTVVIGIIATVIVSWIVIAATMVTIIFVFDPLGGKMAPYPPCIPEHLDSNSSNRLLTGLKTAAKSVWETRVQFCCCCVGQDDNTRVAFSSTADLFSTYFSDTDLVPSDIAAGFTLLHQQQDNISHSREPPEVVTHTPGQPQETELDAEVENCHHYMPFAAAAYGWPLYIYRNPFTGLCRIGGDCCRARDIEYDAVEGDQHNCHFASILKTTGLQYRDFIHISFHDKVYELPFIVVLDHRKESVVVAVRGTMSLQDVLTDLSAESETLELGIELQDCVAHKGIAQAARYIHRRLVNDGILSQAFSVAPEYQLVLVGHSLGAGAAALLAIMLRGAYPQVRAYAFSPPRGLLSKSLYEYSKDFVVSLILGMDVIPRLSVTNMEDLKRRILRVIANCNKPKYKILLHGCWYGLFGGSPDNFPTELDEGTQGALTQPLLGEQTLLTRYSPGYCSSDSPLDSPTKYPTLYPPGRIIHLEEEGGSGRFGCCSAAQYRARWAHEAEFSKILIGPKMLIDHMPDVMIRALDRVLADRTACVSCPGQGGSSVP
UniProt Q9ULW8, sequence (whole entry, looked up): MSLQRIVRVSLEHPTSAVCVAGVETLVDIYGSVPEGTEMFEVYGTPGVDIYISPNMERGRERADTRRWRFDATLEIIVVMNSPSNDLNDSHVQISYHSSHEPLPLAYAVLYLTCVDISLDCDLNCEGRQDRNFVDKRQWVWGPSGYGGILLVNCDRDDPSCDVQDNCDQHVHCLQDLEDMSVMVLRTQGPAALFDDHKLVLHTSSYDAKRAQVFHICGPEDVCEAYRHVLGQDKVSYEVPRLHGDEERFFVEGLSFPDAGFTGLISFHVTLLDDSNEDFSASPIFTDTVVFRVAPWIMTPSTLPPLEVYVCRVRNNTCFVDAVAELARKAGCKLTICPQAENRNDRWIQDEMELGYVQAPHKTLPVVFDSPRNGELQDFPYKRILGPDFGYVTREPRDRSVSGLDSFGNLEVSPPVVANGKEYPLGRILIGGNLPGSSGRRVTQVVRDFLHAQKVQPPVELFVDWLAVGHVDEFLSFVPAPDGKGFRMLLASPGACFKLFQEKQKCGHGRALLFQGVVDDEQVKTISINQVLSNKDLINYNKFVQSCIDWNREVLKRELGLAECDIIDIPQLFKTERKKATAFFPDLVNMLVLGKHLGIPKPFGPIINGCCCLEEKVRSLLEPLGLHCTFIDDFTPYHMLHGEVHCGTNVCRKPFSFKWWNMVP
UniProt P22607, sequence (whole entry, looked up): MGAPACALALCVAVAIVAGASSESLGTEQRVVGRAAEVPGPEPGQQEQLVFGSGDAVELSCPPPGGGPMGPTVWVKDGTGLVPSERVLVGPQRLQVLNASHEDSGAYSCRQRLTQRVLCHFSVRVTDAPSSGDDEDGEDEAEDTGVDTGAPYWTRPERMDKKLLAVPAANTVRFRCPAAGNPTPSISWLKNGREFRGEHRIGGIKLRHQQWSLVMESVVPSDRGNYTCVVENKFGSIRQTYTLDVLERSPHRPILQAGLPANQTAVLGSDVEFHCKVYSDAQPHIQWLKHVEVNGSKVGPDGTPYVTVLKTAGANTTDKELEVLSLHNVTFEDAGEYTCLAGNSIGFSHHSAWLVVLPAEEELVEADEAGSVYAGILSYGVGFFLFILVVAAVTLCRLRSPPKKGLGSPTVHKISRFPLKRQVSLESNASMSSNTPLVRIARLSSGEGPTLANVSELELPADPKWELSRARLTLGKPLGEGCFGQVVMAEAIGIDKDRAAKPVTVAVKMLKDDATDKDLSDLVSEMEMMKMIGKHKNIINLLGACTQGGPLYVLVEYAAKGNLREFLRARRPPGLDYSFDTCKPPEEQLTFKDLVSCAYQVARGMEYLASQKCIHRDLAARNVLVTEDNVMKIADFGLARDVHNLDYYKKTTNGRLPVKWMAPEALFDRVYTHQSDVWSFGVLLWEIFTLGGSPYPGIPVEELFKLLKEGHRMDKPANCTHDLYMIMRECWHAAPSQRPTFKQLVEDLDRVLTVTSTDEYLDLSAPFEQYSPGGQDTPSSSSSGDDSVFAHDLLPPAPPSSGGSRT
UniProt O43603, sequence (whole entry, looked up): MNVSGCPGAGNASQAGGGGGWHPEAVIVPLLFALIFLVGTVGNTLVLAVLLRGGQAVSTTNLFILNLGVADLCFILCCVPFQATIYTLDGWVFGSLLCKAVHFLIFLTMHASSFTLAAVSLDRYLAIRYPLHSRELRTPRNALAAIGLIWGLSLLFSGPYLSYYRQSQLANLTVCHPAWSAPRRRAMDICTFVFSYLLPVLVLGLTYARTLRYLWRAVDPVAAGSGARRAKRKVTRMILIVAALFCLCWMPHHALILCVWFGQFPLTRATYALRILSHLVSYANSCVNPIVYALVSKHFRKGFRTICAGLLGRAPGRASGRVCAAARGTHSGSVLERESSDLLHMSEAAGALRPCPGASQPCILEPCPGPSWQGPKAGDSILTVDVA
UniProt P28223, sequence (whole entry, looked up): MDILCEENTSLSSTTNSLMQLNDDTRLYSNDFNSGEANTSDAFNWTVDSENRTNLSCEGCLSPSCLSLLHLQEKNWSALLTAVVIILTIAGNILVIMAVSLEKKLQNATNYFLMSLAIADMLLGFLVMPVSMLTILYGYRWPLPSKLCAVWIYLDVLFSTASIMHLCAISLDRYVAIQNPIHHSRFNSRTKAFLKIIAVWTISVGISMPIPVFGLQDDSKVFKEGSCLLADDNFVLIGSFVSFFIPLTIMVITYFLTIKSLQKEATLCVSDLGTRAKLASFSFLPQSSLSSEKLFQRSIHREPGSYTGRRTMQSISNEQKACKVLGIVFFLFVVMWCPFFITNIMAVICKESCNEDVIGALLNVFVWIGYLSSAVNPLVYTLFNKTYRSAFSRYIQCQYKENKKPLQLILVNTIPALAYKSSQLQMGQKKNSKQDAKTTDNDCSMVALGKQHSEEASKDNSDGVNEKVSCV
UniProt P08631, sequence (whole entry, looked up): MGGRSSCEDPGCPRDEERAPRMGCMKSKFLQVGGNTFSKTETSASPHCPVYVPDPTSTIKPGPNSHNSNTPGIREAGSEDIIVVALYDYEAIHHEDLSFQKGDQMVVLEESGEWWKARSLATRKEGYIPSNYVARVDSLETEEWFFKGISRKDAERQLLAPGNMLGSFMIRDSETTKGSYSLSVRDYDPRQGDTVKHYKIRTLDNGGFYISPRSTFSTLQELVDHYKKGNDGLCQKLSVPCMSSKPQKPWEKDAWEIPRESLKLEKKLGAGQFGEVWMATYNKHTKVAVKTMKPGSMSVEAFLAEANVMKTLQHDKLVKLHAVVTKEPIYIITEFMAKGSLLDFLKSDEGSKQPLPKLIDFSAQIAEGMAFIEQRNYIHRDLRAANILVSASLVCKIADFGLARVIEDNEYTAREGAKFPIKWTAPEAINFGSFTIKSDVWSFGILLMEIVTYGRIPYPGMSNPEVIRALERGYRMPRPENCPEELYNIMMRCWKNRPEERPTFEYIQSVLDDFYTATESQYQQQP
UniProt P80192, sequence (whole entry, looked up): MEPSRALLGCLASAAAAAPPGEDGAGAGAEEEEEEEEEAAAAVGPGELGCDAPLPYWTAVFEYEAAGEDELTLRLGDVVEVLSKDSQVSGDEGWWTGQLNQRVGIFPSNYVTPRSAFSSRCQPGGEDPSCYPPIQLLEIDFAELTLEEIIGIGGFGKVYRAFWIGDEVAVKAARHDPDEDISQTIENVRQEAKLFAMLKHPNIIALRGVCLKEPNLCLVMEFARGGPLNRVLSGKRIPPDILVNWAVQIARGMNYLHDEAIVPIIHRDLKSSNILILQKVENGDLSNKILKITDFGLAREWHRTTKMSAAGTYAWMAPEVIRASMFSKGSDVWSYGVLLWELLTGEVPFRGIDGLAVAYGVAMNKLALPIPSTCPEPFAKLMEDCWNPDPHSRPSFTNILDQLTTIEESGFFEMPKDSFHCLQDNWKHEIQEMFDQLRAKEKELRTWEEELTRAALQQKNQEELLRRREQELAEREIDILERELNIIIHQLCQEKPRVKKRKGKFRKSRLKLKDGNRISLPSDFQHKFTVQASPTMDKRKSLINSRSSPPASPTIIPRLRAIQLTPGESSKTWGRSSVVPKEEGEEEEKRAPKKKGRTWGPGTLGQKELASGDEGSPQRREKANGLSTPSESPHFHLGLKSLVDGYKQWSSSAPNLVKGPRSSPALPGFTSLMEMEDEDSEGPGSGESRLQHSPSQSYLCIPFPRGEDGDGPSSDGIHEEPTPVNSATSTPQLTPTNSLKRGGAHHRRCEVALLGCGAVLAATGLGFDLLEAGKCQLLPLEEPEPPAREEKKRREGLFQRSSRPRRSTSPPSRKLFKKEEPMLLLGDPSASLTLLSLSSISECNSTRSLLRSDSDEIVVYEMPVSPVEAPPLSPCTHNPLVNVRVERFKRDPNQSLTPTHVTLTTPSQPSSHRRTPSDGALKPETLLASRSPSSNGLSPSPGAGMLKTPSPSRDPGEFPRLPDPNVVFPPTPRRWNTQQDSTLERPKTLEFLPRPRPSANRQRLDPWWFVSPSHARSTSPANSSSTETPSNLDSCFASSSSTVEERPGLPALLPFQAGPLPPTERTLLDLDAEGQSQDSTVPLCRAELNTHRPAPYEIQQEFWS

The remaining binding of Nc1ccc(/C=C/C(=O)N2CCc3c(oc4c(-c5ccc(F)cc5)cc(-c5ccc(C(=O)N6CCC(F)(F)CC6)cn5)cc34)C2)cn1 is reported as 95% (MAP3K9 (Homo sapiens, UniProt P80192); binding, competition with immobilised ligand; 1 µM).
Cc1sc2c(c1C)C(c1ccc(Cl)cc1)=NC(CC(=O)OC(C)(C)C)c1nnc(C)n1-2 (stereo not drawn) has an inhibition of 24% (HTR2A (Homo sapiens, UniProt P28223); ligand displacement, radioligand; 1 µM).
CN(C)[C@H]1C[C@@]23CC[C@@]4(O2)C(=CC[C@]2(C)[C@@H](c5ccc6ccncc6c5)CC[C@H]24)C=C3[C@@H](O)[C@@H]1O gave an inhibition of 0.9% (HCK (Homo sapiens, UniProt P08631); ATP probe labelling, inhibitor, KiNativ profiling; 1 µM).
With O=C1NC(=O)c2c1c1cc(F)c[n+]3c1c1c2c2cc(O)ccc2[n]1[Ru-4]312([N]=C=S)[S+]3CC[S+]1CC[S+]2CC3 (stereo not drawn) the remaining activity was 42% (PAK2 (Homo sapiens, UniProt Q13177); enzyme activity; 100 nM, human enzyme, added: 10 µM ATP; relative to: untreated).
With CS(C)(=O)=Nc1ccc(-c2ccc(-c3nc4cc(O[C@@H]5CO[C@H]6[C@@H]5OC[C@H]6O)[nH]c4cc3F)cc2)cc1 the inhibition was 69% (GALR2 (Homo sapiens, UniProt O43603); calcium signal, antagonist; 10 µM).
The relative translation of CCCn1ncc(CN2CCCC(C(=O)c3cccc(OC)c3)C2)c1C (stereo not drawn) is reported as 113% (Trypanosoma cruzi; reporter mRNA translation, inhibitor, refers to: capped polyadenylated Renilla luciferase mRNA; cell-free extract; concentration not given; relative to: control RNA).
Under “SILAC activity ratio”, CC(C)CC(O)(CC(C)C)c1cn(C(=O)N2CCCC2)nn1 is recorded as 1.04 and 1.25 and 1.39 and 1.12 (Diacylglycerol lipase-beta (Mus musculus, UniProt Q91WC9); probe labelling, inhibitor, competitive ABPP-SILAC; mouse T cells; concentration not given, 4 h, single peptide; relative to: treated over DMSO cells, lower = stronger inhibition).
C#CCN(Cc1ccc2nc(C)[nH]c(=O)c2c1)C(=O)NC(CSCC(N)=O)c1cccc([N+](=O)[O-])c1 (stereo not drawn) has an MIC50 of > 100 µM (Mycobacterium tuberculosis; bacterial growth, inhibitor; H37Rv pptT conditional knockdown; added: anhydrotetracycline added).
The translation activity of CCOc1ccc(CNCCc2ccc3c(c2)OCO3)cc1 is reported as 99% (Trypanosoma cruzi; reporter mRNA translation, inhibitor, refers to: Renilla luciferase mRNA; cell-free extract; concentration not given, test 2; relative to: positive over negative control).
CC(C)[C@H]1NC(=O)C[C@H]2/C=C/CCSSC[C@@H](NC1=O)C(=O)N[C@H](Cc1cccc3ccccc13)C(=O)NCC(=O)O2 has an inhibition of 1.8% (FGFR3 (Homo sapiens, UniProt P22607); enzyme activity, inhibitor; 10 µM).
N[C@H](C(=O)N1CCCC1)C1CCN(c2nccc3c(-c4ncc(Cl)cc4Cl)cccc23)CC1 has a kcat of 0.0359 s⁻¹ and 0.0357 s⁻¹ (PADI3 (Homo sapiens, UniProt Q9ULW8); enzyme activity; 0.2458 µM, added: Ca2+ 0.25 mM).
O=C(NC1CCN(c2ncnc3[nH]cnc23)CC1)c1cccc(NS(=O)(=O)c2ccc(C(F)(F)F)cc2)c1 has an inhibition of 73.5% (Replicase polyprotein 1ab, nsp14 (rep, Human coronavirus 229E, UniProt P0C6X1); enzyme activity; 50 µM).

Repeated from above:
C#CCN(Cc1ccc2nc(C)[nH]c(=O)c2c1)C(=O)NC(CSCC(N)=O)c1cccc([N+](=O)[O-])c1 (stereo not drawn) has an MIC50 of > 100 µM (Mycobacterium tuberculosis; bacterial growth, inhibitor; H37Rv pptT conditional knockdown; added: anhydrotetracycline added).
